Measurements pooled from the literature.
Each numbered part is a random draw from the data of one study; scales do not carry over between parts.

Series 1 — method: RNA Bind-n-Seq; molecule type: RNA; medium: in vitro; concentration: not given; setting: RNA with constant flanks, ends assumed; reference: input RNA pool; reading: higher = stronger binding
Target: RING finger protein unkempt homolog, zinc fingers 1-6, GST-SBP tag (UNK, Homo sapiens, UniProt Q9C0B0, residues 30-357)
Chain of UniProt Q9C0B0 (30-357, looked up): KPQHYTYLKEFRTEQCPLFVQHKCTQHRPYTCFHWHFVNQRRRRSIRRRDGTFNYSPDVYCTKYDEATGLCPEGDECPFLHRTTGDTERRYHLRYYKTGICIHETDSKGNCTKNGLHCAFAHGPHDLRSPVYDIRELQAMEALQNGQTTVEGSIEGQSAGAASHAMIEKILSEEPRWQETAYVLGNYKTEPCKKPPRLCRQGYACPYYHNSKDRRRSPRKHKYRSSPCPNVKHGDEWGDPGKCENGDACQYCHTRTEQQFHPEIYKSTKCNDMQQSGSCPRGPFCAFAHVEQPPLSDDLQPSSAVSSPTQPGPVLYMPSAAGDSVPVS
| Strand | bound/input enrichment |
| --- | --- |
| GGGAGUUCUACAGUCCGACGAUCACAUCUUAUGAAAUGCUUAUUAAAGAGAAGUCUGUGUUCAAAAAAUUUAAUUGGAGAUACUCCGUAACCGAUGAAGCUCACAGGAUCAAAAAUGAAAAAUCUAAGUUGUCAGAAAUAGUGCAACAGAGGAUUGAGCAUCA | 0.397 ratio |
| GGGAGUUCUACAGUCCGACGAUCAUGCCUUUUAAGUAUGGUGUUUGACAUUAACUUGUGAAAAGUCUGUGAUGUUUGUAUAUAUACCGCAUUUGAAGAUAAACUUUUGUGUUAAAAUCUUUUUAUAACUCCAACUUUUGUAGGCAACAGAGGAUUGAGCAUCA | 0.216 ratio |
| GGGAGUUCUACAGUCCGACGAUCACGCAGUUUCCCCGAUUUCCUUCUCUCAGCCUGAAGUUCUAGAUCCUUUCGGUUUCCUCCUCCGUCCCUCCAAGGUACUUAACCCCUUUUUGCAGUUUGGACUUUGAGAUUGUGAAUCUCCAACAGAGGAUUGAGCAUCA | 0.434 ratio |
| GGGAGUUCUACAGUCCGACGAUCAUUCCGUUCAUUGAGACCUCAGCAAAGACAAGACAGGGUGUUGACGAUGCCUUCUAUACAUCCGUCCGAGAAAUUCGAAAACAUAAAGAAAAGAUGAGCAAAGAUGGGAAGAAGAAGAAGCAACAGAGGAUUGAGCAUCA | 0.289 ratio |
| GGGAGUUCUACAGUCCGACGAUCUCAGGUACUUUGGAGGCCACAGAAAAGGAACCAGUGAACAAGGAAUCGGAGGAAAUGAGUGCCGUAUUUAUUUCUAAUUUGCCUAACAAAGGAUAUUCUACAGAAGAAAUUUACAACUUACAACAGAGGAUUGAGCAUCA | 0.412 ratio |
| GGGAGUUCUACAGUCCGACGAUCUGGUGUUGGCGGUCUGGCUCAGCUGGGCAGGGGGUAACUUUACUGAUUUGGGGGUGGUUUUCCGUUUAAUUUUUCUUUUCUAGCUUCCCAUCGACGGUCAGUGCGCACGUUGUAAUCAGCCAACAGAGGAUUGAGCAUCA | 0.913 ratio |
| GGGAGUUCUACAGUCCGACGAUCAAUUUUAACCAAGAAUCUGAAGGUAGAAAUACAGGACCAUGGUUAUCUUCCUCACUCCGAAACCGAUGCACACCUUUGUUCUCUAGAAGGAGGCGAGAGGGAAGAGAUGAAUCUUCAAGGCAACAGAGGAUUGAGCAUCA | 0.276 ratio |
| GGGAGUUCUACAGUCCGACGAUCAGUGUAGUAUUUAUUUCUAAUUUGCCUAACAAAGGAUAUUCUACAGAAGAAAUUUACAACUCCGCAAAACCAUUUGGUGCUUUGAAGGACAUUUUGGUUUUAUCAUCUCAUAAAAAGGCACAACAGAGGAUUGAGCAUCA | 1.15 ratio |

Series 2 — method: RNA Bind-n-Seq; molecule type: RNA; medium: in vitro; concentration: 1 µM; setting: whole 134-nt RNA, ends assumed; together with: 150 mM KCl; reference: input library; reading: higher = stronger binding
Target: Ras GTPase-activating protein-binding protein 1, C-terminal RGG region (G3BP1, Homo sapiens, UniProt Q13283)
Chain of UniProt Q13283 (whole entry, looked up): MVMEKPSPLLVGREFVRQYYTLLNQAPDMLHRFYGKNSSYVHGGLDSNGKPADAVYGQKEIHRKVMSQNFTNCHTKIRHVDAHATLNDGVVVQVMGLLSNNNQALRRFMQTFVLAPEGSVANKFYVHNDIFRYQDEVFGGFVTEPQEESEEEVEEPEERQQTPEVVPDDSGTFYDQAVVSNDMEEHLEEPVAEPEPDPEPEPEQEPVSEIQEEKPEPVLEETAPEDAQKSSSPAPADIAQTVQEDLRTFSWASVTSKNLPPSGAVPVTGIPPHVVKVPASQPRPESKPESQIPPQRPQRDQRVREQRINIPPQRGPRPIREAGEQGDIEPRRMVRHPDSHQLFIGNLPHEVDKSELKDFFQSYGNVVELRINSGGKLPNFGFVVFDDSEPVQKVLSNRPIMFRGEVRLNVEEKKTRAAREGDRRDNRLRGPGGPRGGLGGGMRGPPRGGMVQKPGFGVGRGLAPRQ
| Strand | log2 enrichment |
| --- | --- |
| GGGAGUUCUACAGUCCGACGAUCAAGUCCUGUGCUACACAUCGUAUGUACCGAAUCGGGGAAAAAGGGGAGGGGAGGGGAAAGUAUUAUGUUACGCCGUUCGGAUCUGCACUUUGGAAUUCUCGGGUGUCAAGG | 2.16 |
| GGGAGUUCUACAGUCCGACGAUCAAGUCCUGUGCUACACAUCGUAUGUACCGAAUCGGGAAAAAAAGGGAGGGAAAGGGAAAGUAUUAUGUUACGCCGUUCGGAUCUGCACUUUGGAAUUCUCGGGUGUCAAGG | 0.761 |
| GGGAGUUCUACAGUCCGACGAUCAAGUCCUGUGCUACACAUCGUAUGUACCGAAUCGGGGAAAAGGAAAAGGGAAAAGGAAAGUAUUAUGUUACGCCGUUCGGAUCUGCACUUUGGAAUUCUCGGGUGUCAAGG | -1.83 |
| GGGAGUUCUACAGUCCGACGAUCAAGUCCUGUGCUACACAUCGUAUGUACCGAAUCAAAUUUAAAUUUAAAUUUUUAAAAAAGUAUUAUGUUACGCCGUUCGGAUCUGCACUUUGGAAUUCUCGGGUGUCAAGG | -2.21 |
| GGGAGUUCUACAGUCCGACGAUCGUCCUGUGCUACACAUCGUAUGUACCGAAUCGGGCCCCCCGGCCCCCCGGCCCCCCGGGAAAGUAUUAUGUUACGCCGUUCGGAUCUGCAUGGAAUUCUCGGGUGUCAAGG | -1.18 |
| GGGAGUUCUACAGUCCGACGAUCUCAAGUCCUGUGCUACACAUCGUAUGUACCGAAUCGGGGCCCGGCCCGGCCCGGAAAGUAUUAUGUUACGCCGUUCGGAUCUGCACUUCCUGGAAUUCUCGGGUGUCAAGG | -1.56 |
| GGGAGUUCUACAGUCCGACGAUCCACAGACAACACGCACCCACACAGACACAGAGGGAAGGGGUUGGGAUGGGGACAGGGUGCACAGCAAGGCGGGGUAGGACCCCAGCCCCUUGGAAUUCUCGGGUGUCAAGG | -0.343 |
| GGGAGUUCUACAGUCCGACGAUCAGUCCUGUGCUACACAUCGUAUGUACCGAAUCGGUUUUGGGGUUUUGGGUUUUGGGGAAAGUAUUAUGUUACGCCGUUCGGAUCUGCACUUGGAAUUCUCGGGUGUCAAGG | -0.552 |
| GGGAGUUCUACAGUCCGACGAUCCAAGUCCUGUGCUACACAUCGUAUGUACCGAAUCGGGUUUUUGGGUGGGAAAGGGAAAGUAUUAUGUUACGCCGUUCGGAUCUGCACUUCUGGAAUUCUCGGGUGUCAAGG | 1.35 |
| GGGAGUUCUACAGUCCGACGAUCUAACUUUAGAGGAGGAUCUGAUGGAUAUGGCAGUGGACGUGGAUUUGGGGAUGGCUAUAUUGGGUAUGGAGGAGGACCUGGAGGUGGCAAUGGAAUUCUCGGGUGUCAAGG | -0.952 |
| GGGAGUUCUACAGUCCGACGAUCACCAUGCAGGUGGGCAUCUUUGGGAAGUGGGGCUAGGGGGGGAUAGGGAGGGGGGUAACACUUUGGGAACAGGUGGUCCCAGGUCGUUUCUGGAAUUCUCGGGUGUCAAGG | -0.673 |

Series 3 — method: protein binding microarray; molecule type: double-stranded DNA, one strand shown; medium: in vitro; concentration: not given; reference: not given; reading: higher = stronger binding
Target: Histone acetyltransferase KAT6A, both winged helices, GST fusion (KAT6A, Homo sapiens, UniProt Q92794, residues 1-181)
Setting: 8-mer, flanks averaged, mean of 2 arrays, mostly near background
Residues (chain): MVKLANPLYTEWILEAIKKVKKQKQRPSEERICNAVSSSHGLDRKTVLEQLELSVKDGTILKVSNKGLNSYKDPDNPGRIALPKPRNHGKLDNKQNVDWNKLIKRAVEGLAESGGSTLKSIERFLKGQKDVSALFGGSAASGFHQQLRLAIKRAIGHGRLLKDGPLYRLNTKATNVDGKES
| Strand | E-score |
| --- | --- |
| CGATAATA | -0.0379 |
| AGGTTTAG | -0.166 |
| ATTTGTAA | -0.123 |
| GTCATTCA | -0.0209 |
| TCAGGGGA | -0.22 |
| ACGGTGAT | 0.124 |
| CAGTATTC | -0.0131 |
| CCATTCTA | -0.191 |
| AATTTACT | -0.0329 |
| TAGTCCGA | 0.0865 |
| AAAGGTCT | -0.151 |
| GGCCCTAC | -0.0901 |
| AGCCGACT | 0.0425 |
| GTCGTTTA | 0.127 |
| AGTTTGTG | -0.0484 |
| ACGCCAAT | -0.0771 |
| AGATGTAA | -0.0512 |
| AAGACTCA | -0.0854 |
| AGCAGGGG | -0.191 |
| CCTGTCAC | -0.00101 |
| GAGGCACC | -0.0162 |

Series 4 — method: universal PBM; molecule type: double-stranded DNA, one strand shown; medium: in vitro; concentration: not given; reading: higher = stronger binding
Target: Sal-like protein 4, full length isoform B (SALL4, Homo sapiens, UniProt Q9UJQ4-2, residues 1-616)
Setting: 8-mer, flanks averaged, mean of replicates
| Strand | E-score |
| --- | --- |
| ACCTAGTA | 0.0565 |
| AAAAGCAC | -0.0631 |
| CTTGTGCC | -0.123 |
| AAATCCAG | 0.114 |
| CGTAATAA | 0.386 |
| GGCTAAAC | -0.172 |
| ACCCCGCG | -0.151 |
| ACGCCGGA | -0.262 |
| AACCCGTC | -0.0518 |
| GATATTGA | 0.266 |
